Experimental data from different studies.
Each line is one published result; not all experiments were run side by side. “And” joins repeats or separate records; there may be more than shown. ± gives the spread as reported.

Under “action potential amplitude change”, `COc1ccc(CCC2CCCC(CCc3ccc(OC)cc3)N2C[C@@H](O)CO)cc1.Cl` (stereo in doubt) is recorded as -1 ± 4.4 mV (rabbit Purkinje fibres; 0.3 µM, cycle length 1 s; reference: baseline).
For `CC[C@H](C)[C@H](NC(=O)[C@H](Cc1ccccc1)NC(=O)[C@H](CCC(=O)O)NC(=O)[C@H](CCCNC(=N)N)NC(=O)[C@H](C)NC(=O)[C@H](C)NC(=O)[C@H](CCC(N)=O)NC(=O)[C@H](CCC(=O)O)NC(=O)[C@H](CCC(=O)O)NC(=O)[C@H](CC(C)C)NC(=O)[C@H](Cc1ccc(O)cc1)NC(=O)[C@H](CO)NC(=O)[C@H](CO)NC(=O)[C@@H](NC(=O)[C@H](CC(=O)O)NC(=O)[C@H](CO)NC(=O)[C@@H](NC(=O)[C@H](Cc1ccccc1)NC(=O)[C@@H](NC(=O)CNC(=O)[C@H](CCC(=O)O)NC(=O)[C@H](C)NC(=O)CCc1cnc[nH]1)[C@@H](C)O)[C@@H](C)O)C(C)C)C(=O)N[C@@H](C)C(=O)N[C@@H](Cc1c[nH]c2ccccc12)C(=O)N[C@@H](CC(C)C)C(=O)N[C@H](C(=O)N[C@@H](CCCNC(=N)N)C(=O)NCC(=O)N[C@@H](CCCNC(=N)N)C(=O)N[C@@H](CCCCNC(=O)COCCOCCNC(=O)COCCOCCNC(=O)CC[C@H](NC(=O)CCCCCCCCCCCCCCCCC(=O)O)C(=O)O)C(=O)NCC(=O)NCC(=O)N[C@@H](CO)C(=O)N[C@@H](CCCCNC(=O)[C@H](CCCCNc1c(NCCCCCN(O)C(=O)CCC(=O)NCCCCCN(O)C(=O)CCC(=O)NCCCCCN(O)C(C)=O)c(=O)c1=O)Nc1c(NCCCCCN(O)C(=O)CCC(=O)NCCCCCN(O)C(=O)CCC(=O)NCCCCCN(O)C(C)=O)c(=O)c1=O)C(=O)O)C(C)C` [zirconium-89 labelled], the tissue uptake was 7.67 %ID/g and 6.58 %ID/g and 6.68 %ID/g and 6.55 %ID/g and 7.87 %ID/g (ex vivo gamma counting; Sprague-Dawley rat, male, kidney; intravenous, 1 nmol, 24 h).
`O=C(O)CCCOc1ccc(F)cc1-c1cc(-c2ccccc2C(F)(F)F)n(-c2ccccc2)n1`: “serum protein fraction” 14.6 ± 0.7% (item: β-glb; Crl:CD(SD) rats, female, serum; iv, 25 µg/kg, 1 day).
For `C[C@H]1COCCN1c1nc(NCc2cccnc2C(F)(F)F)c2cccnc2n1`, “heart rate change” read -35.7% (anaesthetized rat; intravenous, 30 mg/kg; reference: control).
`COc1ncccc1-c1cnn2ccc(N3CCN(C(=O)OC(C)C)CC3)nc12` has a drug concentration of 5800 nM (mouse nerve ligation model, plasma; oral, 30 mg/kg, 120 min after last dose, repeat dosing day 2).
For `O=C(Nc1ccccc1)C1CCN(C(=O)Oc2cccnc2)CC1`, “subjects with pain in extremity” read 0% (adverse event reporting; healthy women; oral, 100 mg, 9 days).
`O=S(=O)([O-])C(F)(F)C(F)(F)C(F)(F)C(F)(F)C(F)(F)C(F)(F)C(F)(F)C(F)(F)F.[K+]`: hepatic triglycerides “increased” (male C57BL/6J mice, EtOH-fed, liver; dose not given; reference: efavirenz and pair-fed).
`CO[C@H]1C[C@@H]2CC[C@@H](C)[C@@](O)(O2)C(=O)C(=O)N2CCCC[C@H]2C(=O)O[C@H]([C@H](C)C[C@@H]2CC[C@@H](OC(=O)NCCOCCOCCOCCOCCOCCOCCOCCOCCC(=O)N3CCc4cc(Cn5nc(-c6ccc7oc(N)nc7c6)c6c(N)ncnc65)ccc4C3)[C@H](OC)C2)C[C@@H](O)[C@H](C)/C=C(\C)[C@@H](O)[C@@H](OC)C(=O)[C@H](C)C[C@H](C)/C=C/C=C/C=C/1C`: “incidence of Nausea TRAE” 0% (patients with advanced solid tumours; intravenous, 1.6 mg/3 mg weekly, grade ≥3).
For `[O-][S+]1CCc2nc(N3CCC(c4ncc(Cl)cn4)CC3)nc(NC3(CO)CCC3)c21` (centres unmarked), “Investigations adverse events” read 30% (idiopathic pulmonary fibrosis patients; 18 mg twice daily).
Under “acute hepatic failure incidence”, `Cn1ncc(-c2nc(N[C@H]3CC[C@H](N)CC3)ncc2Cl)c1CC1CC1` is recorded as 3.2% (phase I dose escalation; human patients; dose not given, treatment-related grade 3 or higher).
`COc1cc2c(Oc3ccc4[nH]c(C)cc4c3F)ccnc2cc1OCC1(N)CC1`: “incidence of adverse event” 5.9% (item: grade 1 or 2 abdominal distension; paediatric high-risk refractory sarcoma; whole group).
`CCc1ccc(CC/C=C/c2ccc3c(c2)C(=O)CC3)cc1` has an Eosinophil percentage of 0.97% (Sprague-Dawley rat, female; oral, 120 mg/kg/day, 14 days).
For `Cn1cncc1-c1c(F)cncc1NC(=O)c1c(N)nn2cc(F)cnc12`, “grade ≥3 neutrophil decrease incidence” read 0% (human patients; oral, 180 mg once daily).
For `Nc1nc2cc(-c3ccc4ncc(C(=O)N5CCOCC5)n4c3)ccc2o1`, “respiratory failure adverse events” read 6% (human, advanced solid tumours; concentration not given).
`O=C1N=C(N2CCCCN2)S/C1=C\c1ccc(F)cc1OC(=O)N1CCCC1` has an NOEL of 200 mg/kg/day (rat Sprague-Dawley both sexes; oral, dose not given, 7 days repeat dose, twice daily).
`O=C1Nc2cc3[nH]nc(-c4ccncc4)c3cc2CN1Cc1ccccc1` — result for “patients with blurred vision”: 0% (CTCAE v4.03; advanced solid tumour patients; intravenous, 0.9 mg/kg, schedules 1/2).
Under “TEAE leading to interruption”, `N[C@@H]1c2ccccc2OC12CCN(c1cnc3c(N4CCCc5ncccc54)n[nH]c3n1)CC2` is recorded as 66.7% (advanced metastatic solid tumour patients; oral, 50 mg once daily).
With `CC[C@H](C)[C@H](NC(=O)[C@H](CCCCN)NC(=O)[C@H](CC(=O)O)NC(=O)[C@H](CC(C)C)NC(=O)[C@@H](NC(=O)[C@H](CC(N)=O)NC(=O)[C@H](CC(C)C)NC(=O)[C@@H](NC(=O)[C@H](Cc1ccccc1)NC(=O)[C@H](CCCCN)NC(=O)[C@H](CCCCN)NC(=O)CNC(=O)[C@H](C)NC(=O)[C@H](CC(N)=O)NC(=O)[C@H](CCCCN)NC(=O)[C@H](Cc1ccccc1)NC(=O)[C@H](CC(N)=O)NC(=O)[C@H](CCC(=O)O)NC(=O)[C@H](Cc1c[nH]c2ccccc12)NC(=O)[C@H](CC(C)C)NC(=O)[C@@H](N)CO)[C@@H](C)CC)[C@@H](C)CC)C(=O)N[C@@H](CCCNC(=N)N)C(=O)N[C@H]1CSSC[C@@H](C(=O)N[C@@H](CCCNC(=N)N)C(N)=O)NC(=O)CNC(=O)CNC(=O)[C@H](C)NC(=O)[C@H](C(C)C)NC(=O)[C@H](CCCNC(=N)N)NC1=O` the HC50 was 58.9 µM (horse erythrocytes; 2 h, 37 °C; reference: Triton X-100).
`CC(C)(C)c1cc(-n2nc3ccccc3n2)c(O)c(C(C)(C)C)c1` — result for “daily dermal uptake, percentile”: 20.9 ng/kg body weight/day (exposure assessment; human, age 2-3 years; concentration not given, spray sunscreen, 95th percentile).
`CC(C)CC(=O)OC[C@H]1O[C@@](C#N)(c2ccc3c(N)ncnn23)[C@H](O)[C@@H]1O` has a remaining compound of 0% (Mice plasma; 5 µM, 30 min).
`CN1CCN(S(=O)(=O)c2cc([N+](=O)[O-])ccc2N(CCOS(C)(=O)=O)CCOS(C)(=O)=O)CC1` has a concentration of 20 nM (NSG mice female, plasma; intraperitoneal, 10 mg/kg, 1.5 h).
With `C1=Cc2nc1cc1ccc([n-]1)c(C1CC1)c1nc(cc3ccc([n-]3)c2C2CC2)C=C1.CC(=O)[O-].[Mn+3]` the plasma concentration was 98 ng/mL and 252 ng/mL (LC-MS/MS; Sprague-Dawley rat, plasma; oral gavage, dose not given, 30 min).
`O=S(=O)(Nc1ccccc1)c1ccc(NC(=S)Nc2ccccc2)cc1` — result for “mean platelet volume”: 6.28 fL (mouse, female, blood; oral, 20 mg/kg daily, 14 days).
`Clc1ccc(-c2ccccc2)cc1`: “serum free thyroxine” 38 ± 16 pmol/L (rat Sprague-Dawley female, serum; inhalation, 23 µg/rat, 2 h).
`Cn1cc(-c2nc(N[C@@H]3CCCC[C@@H]3N)c(F)c3c2C(=O)NC3)cn1` — result for “hemorrhagic adverse events”: 100% (item: any bleeding; patients with relapsed or refractory AML; oral, 80 mg twice daily).
With `CCCCCOc1ccc(-c2ccc(-c3ccc(C(=O)N[C@H]4C[C@@H](O)[C@@H](OCC[N+](C)(C)C)NC(=O)[C@@H]5[C@@H](O)[C@@H](C)CN5C(=O)[C@H]([C@@H](C)O)NC(=O)[C@H]([C@H](O)[C@@H](O)c5ccc(O)cc5)NC(=O)[C@@H]5C[C@@H](O)CN5C(=O)[C@H]([C@@H](C)O)NC4=O)cc3)cc2)cc1` the bilirubin was 16.7 µmol/L (adult ICU patients, mITT, serum; dose not given, Baseline).
For `O=c1oc2c(O)c(O)cc3c(=O)oc4c(O)c(O)cc1c4c23`, the spleen weight was 0.085 g (subacute oral toxicity; BALB/c mice; oral, 1000 mg/kg/day, 28 days).
`O=S(=O)(Nc1ccc2c(c1)B(O)OC2)c1ccc(Cl)cc1` has a donor concentration of 180 ± 3.8 µM (PAMPA; pre-coated trilayer membrane; 200 µM, 5 h, pH 7.4, donor plate, PBS).
`CC(=O)c1c(C)c2cnc(Nc3ccc(C4CCN(CCS(C)(=O)=O)CC4)cn3)nc2n(C2CCCC2)c1=O` gave a Cmax of 75.6 ng/mL (human, dose-escalation trial, plasma; oral, 25 mg twice daily, day 1, single dose).
For `C[C@]1(CO)Cc2ncn(-c3ccc(C#N)c(Cl)c3)c2C(=O)O1`, “subjects with drug-related dizziness” read 0% (human, Chinese; 60 mg single dose).
For `CC(C)[C@@H]1NC(=O)CNC(=O)[C@H](CC(N)=O)NC(=O)[C@H](CCCNC(=N)N)NC(=O)[C@H](Cc2ccc(O)cc2)NC(=O)[C@H](C(C)C)NC(=O)[C@@H](NC(=O)[C@@H](NC(=O)[C@H](CC(N)=O)NC(=O)[C@H](Cc2c[nH]c3ccccc23)NC(=O)[C@H](C)NC(=O)[C@H](Cc2ccccc2)NC(=O)CN)C(C)C)CSSC[C@@H](C(=O)N[C@@H](Cc2cnc[nH]2)C(=O)N[C@@H](CCCNC(=N)N)C(=O)N[C@@H](CCCNC(=N)N)C(=O)N[C@@H](C)C(=O)N[C@@H](CC(N)=O)C(N)=O)NC(=O)[C@H](C(C)C)NC(=O)[C@H](CCCNC(=N)N)NC1=O`, the remaining peptide was 22.2% and 16.4% and 14.6% (HPLC; mouse liver homogenate; 2560 µM, 2.00 h, 50 mg/mL tissue).
`C[C@H]1C[C@@H](N2C(=N)N[C@](C)(c3cccc(NC(=O)c4cccc(C#N)c4)c3Cl)CC2=O)CCO1`: “neutrophils count change” 20% (rat; 1000 mg/kg, every other day).
For `N[C@@H](Cc1ccc(O)c(O)c1)C(=O)O`, the Ctrough ratio was 3.17 (human, plasma; oral, dose not given, carbidopa/levodopa every 4 h, added: opicapone; reference: after over before opicapone).
With `COc1ccc2nc3cc(Cl)ccc3c(Nc3cc(CN4CCCC4)c(O)c(CN4CCCC4)c3)c2n1` the urea level was 2.56 µmol/L (mouse, blood; intraperitoneal, 57 mg/kg).
With `NCCCS(=O)(=O)O` the Cmin was 148 ng/mL (human, plasma; oral, 265 mg twice daily, pre-dose, steady state week 65).
